Measurements pooled from the literature.
Numbered parts are unrelated; each lists some results of a single study.

Series 1
Molecule: PhoQ, residues 284 288 289 292 302 303 QWGLFV
Technique: Sort-seq
Refers to: YFP reporter
Matrix: E. coli
Notes: PhoQ-PhoP variant library
Added: 10 µM Mg2+
Reference: high Mg2+ state
Reading: higher = stronger signaling
target	fold induction
PhoP, residues 12 14 15 18 19 VGHWL (Escherichia coli, UniProt P23836)	9.84
PhoP, residues 12 14 15 18 19 TPWTL (Escherichia coli, UniProt P23836)	0.929
PhoP, residues 12 14 15 18 19 LHHYF (Escherichia coli, UniProt P23836)	11.4
PhoP, residues 12 14 15 18 19 NFFVT (Escherichia coli, UniProt P23836)	10.2

Series 2
Target: RNA binding protein fox-1 homolog 2, RRM domain, GST-SBP tag (RBFOX2, Homo sapiens, UniProt O43251-10, residues 100-194)
Technique: RNA Bind-n-Seq
Form: RNA
Matrix: in vitro
Concentration: 365 nM
Notes: natural RNA segment, single round, ends assumed
Reference: no-protein control
Reading: higher = stronger binding
Shared flanks, not repeated: GGGAGUUCUACAGUCCGACGAUC … UGGAAUUCUCGGGUGCCAA
Residues (chain): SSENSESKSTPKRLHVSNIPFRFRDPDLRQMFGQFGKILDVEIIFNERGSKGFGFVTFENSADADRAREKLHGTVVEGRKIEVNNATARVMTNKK
Sequence	RBNS enrichment (R)
CCCGAGCCCUGACUCCUGGACUCCGGAGGACUGAGCCCCCACCGGAACUGGGCUGGCGCUUGGAUCUGGGGUGGGAGUAACAGGGCAGAAAUGAUUAAAAUGUUUGAGCA	0.883
CAAGACAUCCCUUUAGGUGACAAGACUCUAUAACAGUGGUUACCUGUCUCCAUGUUGACACUUCAUCCUAGAUUUAAGGAGAGGCAUCAAUUUUUUUUUUUUUUUGCCUC	0.287
GUGGGUGUGCCGGGUGGGGUGUGUGUGAUCAAAGGACAAAGACAGUAUUUUGACAAAAUACGAAGUGGAGAUUUACACUACAUUGUACAAGGAAUGAAAGUGUCACGGGU	0.789
CACCCCGGCUCCCUGGCCCUAUCCACACCUCCACCCCCACCCCAGGAUCGCCAUCUUUAGGGGAGGCCUGGGAGGGGGUGUUAGGUGUUUUAGGGCCACCGAGCUCAAAC	0.264
CCUCCUUUCAAGCUAGCCAAGUUUUCUGCGAGCCUUCAGAGCUAGGAGGGCACCCUAGGCUCUGGGAUCCCGUGUCUUUCCAGACAAUGUUUUGUUUCCUUUCCUUUGUU	0.467
AGAGCACAAGAGUAUGCGUACAUAGUUUACCAGGUAGUAGAAGUGUGUUAAAAUGUUCCUGUAAAAGAAACAUUGGUAAAUUUAAAUACAUACUGUUCUAAUUUUGUAUU	0.769
UUAAGCGGGCUCCUGACAAUGAGAUGUGAACCUAGAGCUUUCCUAGUGAUGCUGGCUCUGCAGUUCCCUCUUGCCCAUCCCCGAGUGGGGACAAUUUCCCCAUCCCCAAG	0.282
AGAGUUUAAGUGUUUGCUCUUUCCCCGAAGUCUUUAAAGGACCUUGAAGCAGGUCACCAUGCUUGCAAAUUAAGUUUCAGCAGCUCUACCUCCUGGCAGAAGGACUGAGU	0.237

Series 3
Target: Prothrombin, mature alpha-thrombin (F2, Homo sapiens, UniProt P00734)
Technique: aptamer microarray, sandwich
Form: DNA with 2'F-ANA
Matrix: in vitro
Concentration: 200 nM
Notes: whole 15-mer aptamer, many near background
Added: Cy3 exosite-II aptamer, 400 nM
Reading: higher = stronger binding
Sequence: GGTTGGTGTGGTTGG
Modification	mean fluorescence intensity [a.u.]
2'F-ANA at 1 6 7 9 10 11 12	73.2
2'F-ANA at 5 7 10 12 15	51.9
2'F-ANA at 3 4 5 6 7 8 9 11 13 14	52.8
2'F-ANA at 1 3 4 6 14 15	75.3
2'F-ANA at 1 3 5 6 7 8 9 12 14 15	83.6
2'F-ANA at 6 7 10 11 13 14 15	113
2'F-ANA at 2 4 5 6 7 8 11 13 14	45.9
2'F-ANA at 5 6 8 9 10 11 13	48.7
2'F-ANA at 1 2 3 5 6 8 9 10 14 15	52.6
2'F-ANA at 2 5 7 8 10 12 13 15	57
2'F-ANA at 1 2 4 5 6 10 13 15	53.9
2'F-ANA at 2 4 5 6 7 10 11 14 15	49.8
2'F-ANA at 1 2 4 5 8 10 13 14	55.6
2'F-ANA at 2 5 6 9 13 14 15	45.4
2'F-ANA at 3 5 9 11 15	98.6
2'F-ANA at 2 3 7 8 10 15	423
2'F-ANA at 5 6 8 9 11 12 13 15	94.6
2'F-ANA at 1 2 4 5 7 9 11 12 13	69
2'F-ANA at 2 4 7 11 13 14 15	100
2'F-ANA at 1 4 5 7 10 11 12 13 14	255
2'F-ANA at 1 2 9 10 11 12 13 14 15	49.9
2'F-ANA at 3 4 7 10 12 13 14 15	225

Series 4
Target: Hepatocyte nuclear factor 3-alpha (Foxa1, Mus musculus, UniProt P35582, residues 1-468, full length assumed)
UniProt P35582, sequence (whole entry, looked up): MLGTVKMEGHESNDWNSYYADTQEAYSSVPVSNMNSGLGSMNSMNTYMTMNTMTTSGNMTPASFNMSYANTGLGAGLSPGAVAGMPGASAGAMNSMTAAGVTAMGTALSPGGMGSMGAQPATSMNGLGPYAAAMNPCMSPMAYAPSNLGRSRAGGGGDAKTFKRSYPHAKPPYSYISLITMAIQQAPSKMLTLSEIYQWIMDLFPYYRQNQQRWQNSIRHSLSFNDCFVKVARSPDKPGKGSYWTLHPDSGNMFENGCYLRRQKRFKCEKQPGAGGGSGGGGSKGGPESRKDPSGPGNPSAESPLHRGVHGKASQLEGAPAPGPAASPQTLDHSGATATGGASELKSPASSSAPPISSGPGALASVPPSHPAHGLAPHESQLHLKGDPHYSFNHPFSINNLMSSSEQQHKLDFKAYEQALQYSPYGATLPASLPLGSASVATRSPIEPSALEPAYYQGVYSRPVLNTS
Technique: EMSA with sequencing
Form: double-stranded DNA, one strand shown
Matrix: in vitro
Concentration: 10 and 20 nM
Notes: whole designed probe, mean of two concentrations, ends assumed
Reference: negative control set to 0
Reading: higher = stronger binding
Shared flanks, not repeated: GTGAGCGGTGCCCATTGATGGGGAAC … TTTCACTGGGATCGTGGGGAC
Sequence	normalised bound fraction [ratio]
AAGACCGGCAGCCTCTGGTTCCTGTTGTTGTTTTTTAAGTGCGCGGAGGCGCAGGCGAAACTCGGAGTTTCCAACTCGTTGCTTATTTTGCAAAGTAAACAAGCAAATGTTATGTGCATAACCTTCGCTGTCTCGCTAAAGGTCAGCGCGCCCCTGCTCATTTCCCGGGCTGCCTTTTGGGGGCACTCTGATG	0.46
AGGGACACTCAGAGAGTGAGGGAAGAAGGCTCTGAAGATCTCACTACTGCAGAGCAATCTGCTCCATAGAGAGATCTTCCTCACCCCAGAGAAAGATTACTCTATTAAATGTTAGAAGAGCATGTGTAATTTGCAAGCTTATTTAGTTTTCAGTTCCACCTCCCTTGGAAAGGAAAAGTGATACAATCATCTT	0.0204
CCCCTCTTCATCTTCCTTGCCCCACCAGCTCACCTTCCCGGGTTATTTGCAGATAGGAAAATAAATAAAGCCGGCATTCGTTAACCCTCTTCTGGCGCAAACTGCTGTTTGCTCTGGATGAATCATGGTCCTTTGGCGACGCCAGGCTCCGGGAGAGCAAAGCACCGTGTCAGGGCCATGATCCGGGGTGGCC	0.321
TTTTTGTTTTCACAATCCCAGTTGTTCTGCTACTAACCCAATACATCTATTTACAAAAGAAGTTACATGAGTCTCTTTTTTCTCCATTTTTTTGTTTACATAGGCAAATTTCCTTACAATGTAAACTGTAATAATAGTTGAAACATGTGGTTTTATCAATTCTGTTTTACAGCAGCCTGAGAAGAGTGAAGAA	0.534
TCCACAGTAGAAACGAAGGAGATGACAGATACCCCGGCACCAAAACTGACACCAGGTTTTTGTTGCTTCTTCCACTATATAATGGAGAAGTTCTGTTTACTCTATACTGTTAACATTGGCTTAAGTTGTGCAACGGAAACCCAAGAAACTGAATCACATCAAAGGTATGTCAGAGGTATGTGAACCAGAGCAA	0.369

Series 5
Target: Ras GTPase-activating protein-binding protein 1, C-terminal RGG region (G3BP1, Homo sapiens, UniProt Q13283)
UniProt Q13283, sequence (whole entry, looked up): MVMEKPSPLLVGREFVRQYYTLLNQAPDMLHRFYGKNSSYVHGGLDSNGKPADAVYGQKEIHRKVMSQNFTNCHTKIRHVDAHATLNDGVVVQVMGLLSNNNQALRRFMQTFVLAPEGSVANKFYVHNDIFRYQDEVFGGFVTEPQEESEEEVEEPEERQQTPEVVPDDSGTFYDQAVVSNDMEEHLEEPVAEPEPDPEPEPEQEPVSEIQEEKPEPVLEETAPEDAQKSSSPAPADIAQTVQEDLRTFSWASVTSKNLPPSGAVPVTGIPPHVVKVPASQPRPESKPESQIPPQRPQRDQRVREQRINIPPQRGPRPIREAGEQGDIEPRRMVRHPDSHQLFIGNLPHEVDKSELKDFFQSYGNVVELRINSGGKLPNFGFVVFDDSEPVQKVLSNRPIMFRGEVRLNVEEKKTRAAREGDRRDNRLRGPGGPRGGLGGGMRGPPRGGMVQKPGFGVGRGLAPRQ
Technique: RNA Bind-n-Seq
Form: RNA
Matrix: in vitro
Concentration: 1 µM
Notes: whole 134-nt RNA, ends assumed
Added: 150 mM KCl
Reference: input library
Reading: higher = stronger binding
Shared flanks, not repeated: GGGAGUUCUACAGUCCGACGAUC … UGGAAUUCUCGGGUGUCAAGG
Sequence	log2 enrichment
GUCCUGUGCUACACAUCGUAUGUACCGAAUCGGUUUUUUUGGUUUUUGGAAAAAAAGGAAAGUAUUAUGUUACGCCGUUCGGAUCUGCAC	-1.65
GCAGGAAAUAAAAACAAAUGGAAAUGCUUCGGAUAGUGGCAGGGGUGGGGGUUGCUAAGGAAAGGGUGGGAUGGGAGUGGGUAAAGAGUU	2.1
CACAGACAACACGCACCCACACAGACACAGAGGGAAGGGGUUGGGAUGGGGACAGGGAAAACAGCAGGGCGGGGUAGGACCCCAGCCCCU	-0.326
UGGCCCUGGUGGCAUGCGGGGAGGAAGAGGUGCCCUCAUGGAUCGUGGUGGUCCCGGUGGAAUGUUCAGAGGUGGCCGUGGUGGAGACAG	1.6
UGGGAGGUGGAUUUUGUUUAUUUUUUUAGCUCAUUUCCAGGGGGGGGAAUUUUUUUUUAAUAUGUGUCAUGAAUAAAGUUGUUUUUGAAA	2.9
UUAAGAAUUUGCUUAAAGAAGUGCGGAUCUAUGCACAGAAAUUUAUUGAUCGAGGAAAGGAUUUUAACUUGGAGUUGGCAAUUAAAACAC	0.543
CACAGACAACACGCACCCACACAGACACAGAGGGAAGGGCUUGGGAUGGGGACAGGGUGCACAGCAGGGCGGGGUAGGACCCCAGCCCCU	-0.799
UCAAGUCCUGUGCUACACAUCGUAUGUACCGAAUCGGUUUGGGUUUGGUUUGGGAAAGUAUUAUGUUACGCCGUUCGGAUCUGCACUUCC	-0.96
GCAUGAAGUAAAAACAAAUGGAAAUGCUUCGGAUAGUGGCAGGGGUGGGGGUUGCUAAGGAAAGGGUGGGAUGGGAGUGGGUAAAGAGUU	1.48

Repeated from above (series 5):
Sequence	log2 enrichment
CACAGACAACACGCACCCACACAGACACAGAGGGAAGGGGUUGGGAUGGGGACAGGGAAAACAGCAGGGCGGGGUAGGACCCCAGCCCCU	-0.326
UUAAGAAUUUGCUUAAAGAAGUGCGGAUCUAUGCACAGAAAUUUAUUGAUCGAGGAAAGGAUUUUAACUUGGAGUUGGCAAUUAAAACAC	0.543
UCAAGUCCUGUGCUACACAUCGUAUGUACCGAAUCGGUUUGGGUUUGGUUUGGGAAAGUAUUAUGUUACGCCGUUCGGAUCUGCACUUCC	-0.96
